# Assay results from different studies.
# Every numbered part comes from another study and shows a few of its results, in no order. Positions count from the first letter of the parent shown.

# Set 1
# Target: Sal-like protein 4, full length isoform A (SALL4, Homo sapiens, UniProt Q9UJQ4, residues 1-1053)
# UniProt Q9UJQ4, sequence (whole entry, looked up): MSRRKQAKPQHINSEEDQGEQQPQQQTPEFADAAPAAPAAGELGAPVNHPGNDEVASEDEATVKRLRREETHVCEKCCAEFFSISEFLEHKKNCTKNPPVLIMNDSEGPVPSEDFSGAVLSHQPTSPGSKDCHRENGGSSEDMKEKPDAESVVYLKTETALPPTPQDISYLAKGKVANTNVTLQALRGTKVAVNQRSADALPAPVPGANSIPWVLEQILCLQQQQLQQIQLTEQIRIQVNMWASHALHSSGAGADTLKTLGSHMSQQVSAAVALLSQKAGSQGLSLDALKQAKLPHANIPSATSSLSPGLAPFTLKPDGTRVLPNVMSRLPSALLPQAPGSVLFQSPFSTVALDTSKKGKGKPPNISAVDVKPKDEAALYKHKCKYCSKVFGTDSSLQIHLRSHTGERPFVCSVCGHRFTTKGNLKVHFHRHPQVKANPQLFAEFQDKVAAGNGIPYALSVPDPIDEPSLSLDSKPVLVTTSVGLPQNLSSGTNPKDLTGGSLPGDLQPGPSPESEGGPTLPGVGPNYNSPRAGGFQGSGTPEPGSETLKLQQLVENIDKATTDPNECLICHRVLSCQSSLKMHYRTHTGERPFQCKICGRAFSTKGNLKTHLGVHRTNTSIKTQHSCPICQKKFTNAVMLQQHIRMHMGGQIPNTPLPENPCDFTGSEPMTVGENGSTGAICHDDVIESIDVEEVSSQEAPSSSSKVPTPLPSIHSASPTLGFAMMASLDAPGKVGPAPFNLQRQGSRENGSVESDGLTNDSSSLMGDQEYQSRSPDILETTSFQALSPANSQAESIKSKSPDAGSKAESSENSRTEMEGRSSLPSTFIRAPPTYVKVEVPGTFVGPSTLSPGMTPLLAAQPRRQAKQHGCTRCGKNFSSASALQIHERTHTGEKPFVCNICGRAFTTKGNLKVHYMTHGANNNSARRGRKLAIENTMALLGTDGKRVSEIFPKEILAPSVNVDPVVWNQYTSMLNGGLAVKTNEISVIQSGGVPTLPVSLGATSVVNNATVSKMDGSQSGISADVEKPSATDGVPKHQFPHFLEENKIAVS
# Technique: universal PBM
# Molecule type: double-stranded DNA, one strand shown
# Medium: in vitro
# Concentration: 600 nM
# Setting: 8-mer, flanks averaged, mean of replicates
# Direction: higher = stronger binding
Oligonucleotide,E-score
ATTTTCCC,0.162
AAGAAGCG,-0.127
GTAACACA,0.174
ACTACGAA,0.125
GGATTTAC,0.0363
CCCCAAGG,-0.284
ATCGCGAG,0.0437
GGTGGATA,0.0565
AGATGTAA,0.283
ACAACAAA,0.154
ATAAGATA,0.306
ACAATCGC,0.0328
ACGTCCCG,-0.367
ACTGAAAT,0.26
AGGGATTA,0.111
ACAAAGGT,0.0221

# Set 2
# Target: CCNA2, cyclin fold, Cln2 fusion (human)
# Technique: yeast growth competition, sequencing
# Medium: yeast
# Setting: strong parent motif
# Baseline: not given
# Direction: higher = stronger binding
# Parent: E2F1 docking peptide (human); PPVKRRLDFETDH
Variant,normalised enrichment score
D12Y,5.92
F9C,0.391
L7R,-0.00127
D12L,5.92
L7Y,0.501
P2G,6.37
P2T,6.03
D12T,5.93
R5T,3.16
D12E,5.96
R6Y,4.84
R5H,1.7
T11E,5.57
D8Q,5.84
V3H,4.61
D8G,5.82
T11A,5.5

# Set 3
# Target: RING finger protein unkempt homolog, zinc fingers 1-6, GST-SBP tag (UNK, Homo sapiens, UniProt Q9C0B0, residues 30-357)
# UniProt Q9C0B0, sequence (30-357, looked up): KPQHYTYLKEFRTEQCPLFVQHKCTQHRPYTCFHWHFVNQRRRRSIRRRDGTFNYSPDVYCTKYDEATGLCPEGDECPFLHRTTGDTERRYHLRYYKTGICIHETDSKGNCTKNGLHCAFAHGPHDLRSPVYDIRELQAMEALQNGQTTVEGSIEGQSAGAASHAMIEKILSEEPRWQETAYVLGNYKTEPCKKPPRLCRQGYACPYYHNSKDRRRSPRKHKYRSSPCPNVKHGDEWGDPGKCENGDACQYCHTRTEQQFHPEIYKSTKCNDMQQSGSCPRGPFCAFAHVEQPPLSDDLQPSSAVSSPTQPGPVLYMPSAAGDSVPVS
# Technique: RNA Bind-n-Seq
# Molecule type: RNA
# Medium: in vitro
# Concentration: not given
# Setting: RNA with constant flanks, human-mouse chimeric sites, ends assumed
# Baseline: input RNA pool
# Direction: higher = stronger binding
# Constant ends, left off below: GGGAGUUCUACAGUCCGACGAUC … CAACAGAGGAUUGAGCAUCA
Oligonucleotide,bound/input enrichment
GUAUACGGUUAUCGAGGAAAGGACUGUAGAGCGAAUGUUUACCUUCUUCCCACAGGGAAAAUAGUUUAUUUUAUCGCCUCAGUGGUAGUCCUGUUUAAUUAUGAGGAGAGGACUCAGCGA,8.09 ratio
GCACUUCUCAAAUACUGGCCAAAGACUCACAGUCCAAAAGAAGUAAUGUUCUUAAACGAAUUAGAAGAGAUUUUAGAUGUAAUUGAACCAUCAGAGUUUGUGAAGAUCAUGGAGCCUCUU,0.625 ratio
CAACAGAGUCUAGGAUGGGUUCAUUACAUGAUUCAUGAGCCAGAACCGCAUAUUCUUCUCUUUAGACGACCUCUUCCAAAAGAACAACAAAAAUGAAGUUUAUCUGGGGAUCGUCAAUCU,0.202 ratio
GUCAACAGCUGCCUCAACCCCAUCCUCUACGCCUUCCUGGAUGAGAACUUCAAGGCCUGCUUCCGCAAGUUCUGCUGUGCUUCUGCCCUGCGCCGGGACGUGCAGGUUUCUGAUCGUGUG,0.243 ratio
GUUGCCAGCUUCCGGUUCCGUUGGGCUCGGUUCUCUCCUGAGCUACGGUCCCUGGCACUCUCAAUCCGCCAUCCAACAAACAUGGAUCAGGUAAUGCAGUUUGUGGAGCCCAGCCGGCAG,0.128 ratio
CUGUGUGGCUUACUAAAAUGGCUUGUAAAGAAGUUUUUCCAAGCUGUAACCCAUGCUGUUAUUAUAGUUGCUGCAAAAUGUCUCUUAUGAUAUUGAUUUUAUUUGUUAACUGAAGGUCUC,0.491 ratio
AAUUUCCUGUCAUACUUUGUAGCAAGACACAUCAGACGCCUUACUACCCUGGCCACAUUCUAGGUUUGUGUUAUUUCUCAGCUAUGGAUAUGAUCAAAUGAGAACACUGCUUAACUAAUG,0.207 ratio
AGUACUGACUCAGGCGGAUUUUGCAACACCAAGCUCACAGCAGCAGCAUCUUAGUCACAGUAGGGUAGUUUUGGGGCUCUGUGGCCAGGGUUUUAUUCAUGUGCAGGUUUGGAAAAUGUA,2.12 ratio

# Set 4
# Target: RNA binding protein fox-1 homolog 2, RRM domain, GST-SBP tag (RBFOX2, Homo sapiens, UniProt O43251-10, residues 100-194)
# Technique: RNA Bind-n-Seq
# Molecule type: RNA
# Medium: in vitro
# Concentration: 365 nM
# Setting: natural RNA segment, single round, ends assumed
# Baseline: no-protein control
# Direction: higher = stronger binding
# Constant ends, left off below: GGGAGUUCUACAGUCCGACGAUC … UGGAAUUCUCGGGUGCCAA
# Target sequence (chain): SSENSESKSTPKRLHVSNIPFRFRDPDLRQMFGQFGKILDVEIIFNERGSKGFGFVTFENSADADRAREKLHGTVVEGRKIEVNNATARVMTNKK
Oligonucleotide,RBNS enrichment (R)
GCCAAGUGUUCUGCUUGCAUUUGCUUGGCUCUGGUACCAAAUAGUUGGGAUUCUUGAUGAAAUCCCCUGCCCCGCGUGCGUGUCAGUGCAGAUCCUGCGCACCACGCCCC,0.424
CCGGCUGAUGGGGGUUUGCUCAGCACUGUGCCAGUGGAAGCAGGUGUAUUGUGGGCAGUUUUGUCAUUGUCCUCAAGUCCUUCGCAGACAGUGCACAGCCUGCUGUCUGC,0.487
AAAAGAAAAUCCCGGUGCUUGCAGUAGAGUGAUAGGACAUUCUAUGCUUACAGAAAAUAUAGCCAUGAUUGAAAUCAAAUAGUAAAGGCUGUUCUGGCUUUUUAUCUUCU,0.538
UCUCUCUCUGUGCACUCGUGAUCCAUGUUGAACAAUACAUGUAGGUUCUUUUUCCACGCAAUGUAAGAACAUGAUAUACUGUACGUUGGAAAGCAUUUACCUUAUUUAUA,0.387
UUUUAGAAAAGGGAGUCUGUUCCAGAUCAGUGCCAGAACUGUGCCCAGGCCCAAAGGAGACAACUAACUAAAGUAGUGAGAUAGAUUCUAAGGGCAAACAUUUUUCCAAG,0.289
UCAUUAUCAUUAGGACCAUCAGAUUUUAGAUUAAGCUGCUAUUGAAUUAAUAAAAUCCCAAUGAAGCAGAGUUAUAGGGAUAGAUUUAUAGCUGGCAGAGUGGUAUCAAA,0.473
UAAUACAGUCCAGCUGAAAGUAGGAAAUGACUGACCUGUAGGGUUAUAGGGUCCCUGAAUCACUGAUCUUCAACAGGGCAUUUUAAUAUUAGCAUUAGUGUGCACAGGGU,0.753
CCCACAGCACCACGUCCUCGAAUUCUCAGACGACACCUGGAGACUGUCCCGACACAGCGACGCUCCCCUGAGAGGUUUCUGGGGCCCGCUGCGUGCCAUCACUCAACCAU,0.696
CUCCCAGGUGGGAGUGCCUCUAGUCUGGUGGUCCUCAAAGACUCAUCCACAGCAGCAUCUGCCCAUCCCAGGCUCCUCUCUCCUCAGACUCCUCCUAUCUGGCUUGUGCU,0.634
AAUGUCAGCAAUUAUCUGUACAUGGUAAGAACGAAAAAUACCUUCAUUGAAAUAAAGCUACAGCACAAGACAACUUACAGAUUGUGAAACAGCGAGAAUGAAGAGCUACA,0.352
UCCUUCGAGUGCACACUGUACCUCUGGAUGCCCGGGAUGGCAAUGAGGCAGAGCCUGAUGACGAUCAUUUUUCCAUUGGCGUGAGCUCCCGCCUGGAUGGACUGAGGAAU,0.419
UCUAUGUUCAAGACGUAGCUGCAAUAAAAUCCCAGUAGUAAAGGCUCAUUUAGCUCUGUAGCUUUCGGCUCAAUUAAUGUACUUCCUUAUAGUGAAUGAGAAGUGGUAGU,0.6

# Set 5
# Target: UBE2J2 UBC core domain (UniProt Q8N2K1)
# Technique: yeast two-hybrid
# Medium: yeast
# Setting: mostly zero background
# Baseline: not given
# Direction: higher = stronger interaction
# B1: RNF38 RING domain (UniProt Q9H0F5); chain PNNHQSEQTLCVVCMCDFESRQLLRVLPCNHEFHAKCVDKWLKANRTCPICRADASEVHRDS
# B2: TRIM24 RING domain (UniProt O15164); chain EAARLNLLDTCAVCHQNIQSRAPKLLPCLHSFCQRCLPAPQRYLMLPAPMLGSAETPPPVPAPGSPVSGSSPFATQVGVIRCPVCSQECAERHII
# B3: TRIM43 RING domain (UniProt Q96BQ3); chain FSHAFQKELTCVICLNYLVDPVTICCGHSFCRPCLCLSWEEAQSPANCPACREPSPKMDFKT
# B4: TRIM40 RING domain (UniProt Q6P9F5); chain LQKDNQEEGVCPICQESLKEAVSTNCGHLFCRVCLTQHVEKASASGVFCCPLCRKPCSEEVLG
# B5: TRIM4 RING domain (UniProt Q9C037); chain EAEDIQEELTCPICLDYFQDPVSIECGHNFCRGCLHRNWAPGGGPFPCPECRHPSAPAALRP
# B6: TRIML1 RING domain (UniProt Q8N9V2); chain LMENLREELTCFICLDYFSSPVTTECGHSFCLVCLLRSWEEHNTPLSCPECWRTLEGPHFQS
# B7: RNF111 RING domain (UniProt Q6ZNA4); chain EGTEEDTEEKCTICLSILEEGEDVRRLPCMHLFHQVCVDQWLITNKKCPICRVDIEAQLPSE
# Construct (chain): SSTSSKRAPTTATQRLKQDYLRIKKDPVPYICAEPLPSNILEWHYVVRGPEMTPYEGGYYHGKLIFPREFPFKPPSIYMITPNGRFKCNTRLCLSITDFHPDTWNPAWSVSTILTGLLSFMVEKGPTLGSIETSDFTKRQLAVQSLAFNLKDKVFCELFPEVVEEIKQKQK
Sequence,lacZ reporter activity
ASLPTSEEDLCPICYAHPISAVFQPCGHKSCKACINQHLMNNKDCFFCKTTIVSVEDWE (RNF123 RING domain (UniProt Q5XPI4)),0
B1 (RNF38 RING domain),0
B2 (TRIM24 RING domain),0
B3 (TRIM43 RING domain),0
B4 (TRIM40 RING domain),0
FQGDVDEDLICPICSGVLEEPVQAPHCEHAFCNACITQWFSQQQTCPVDRSVVTVAHLRP (RNF41 RING domain (UniProt Q9H4P4)),1070
B5 (TRIM4 RING domain),0
B6 (TRIML1 RING domain),0
DHGAVGQEMCCPICCSEYVKGEVATELPCHHYFHKPCVSIWLQKSGTCPVCRCMFPPPL (PJA1 RING domain (UniProt Q8NG27)),9720
B7 (RNF111 RING domain),0
MPIRALCTICSDFFDHSRDVAAIHCGHTFHLQCLIQWFETAPSRTCPQCRIQVGKRTIIN (TRAIP RING domain (UniProt Q9BWF2)),2720
VEPSEENSKDCVVCQNGTVNWVLLPCRHTCLCDGCVKYFQQCPMCRQFVQESFALC (CGRRF1 RING domain (UniProt Q99675)),0

# Some of these lines once more (set 1):
Oligonucleotide,E-score
AAGAAGCG,-0.127
GTAACACA,0.174
ACTACGAA,0.125
GGATTTAC,0.0363
CCCCAAGG,-0.284
ATCGCGAG,0.0437
GGTGGATA,0.0565
